Measurements gathered from unrelated publications.
Compare with care: the assays were run in different laboratories. ± gives the spread as reported.
Cell line: T47D

Structure (SMILES)	test	conditions	how to read	quantity	result
O=C1NC(c2ccccc2)(c2ccccc2)C(=O)N1Cc1cn(-c2cc3ccccc3oc2=O)nn1	NCI60 single-dose screen	10 µM	–	growth percentage	95.2%
C=CC(=O)N1CCC(COCC(=O)N2CCN(c3nc(-c4cnc(N)nc4C(F)F)nc(N4CCOC[C@@H]4C)n3)CC2)CC1	S6 phosphorylation, inhibitor, in-cell western, measured: phospho-S6 Ser235/236	2 h	–	IC50	26.4 nM
COC(=O)c1cc(C(C)=NNc2nc(-c3ccc4c(c3)OCCCO4)cs2)ccc1O	flow cytometry	20 µM, 72 h	–	cells in G1 phase	31.7 ± 2.57%
C#C[C@@]1(O)[C@@H](CO)O[C@@H](n2cc(F)c3c(N)ncnc32)[C@@H]1O	SRB	NCI-60 screen	–	TGI	770 nM
CCCC(CCC)C(=O)OCc1cn(-c2c3ccccc3nc3ccccc23)nn1	NCI60 single-dose screen	10 µM	–	growth percentage	93.5%
C[C@H](Nc1ccc2c(c1)OCCn1cc(N3C(=O)OC[C@H]3C(F)F)nc1-2)C(N)=O	S6 phosphorylation, inhibitor, in-cell western, measured: phospho-S6 Ser235/236	2 h	–	IC50	17.1 nM
CCCN1CCN(c2ccc3nc(-c4ccc5nc(-c6cc(OC)ccc6OC)[nH]c5c4)[nH]c3c2)CC1	SRB	10 µM, 48 h	–	growth percent	98.8%
Cn1cncc1C1=CN(c2ncnc3[nH]cnc23)CCS1	–	–	–	GI50	10700 nM
Cc1nc(NC(=O)N2CCC[C@H]2C(N)=O)sc1-c1ccnc(C(C)(C)C(F)(F)F)c1	Akt phosphorylation, inhibitor, in-cell western, measured: Akt pSer473	2 h	–	IC50	43.8 nM
Cc1nc(NC(=O)N2CCC[C@H]2C(N)=O)sc1-c1ccnc(C(C)(C)C(F)(F)F)c1	CellTiter-Glo	120 h	–	Hill coefficient	1.38
Cc1cc(C)n(C(=S)[S][Au][PH](CCCCCC[PH]([Au][S]C(=S)n2nc(C)cc2C)(c2ccccc2)c2ccccc2)(c2ccccc2)c2ccccc2)n1	cell growth, NCI-60 screen	breast cancer	–	log10 TGI	> -4
CCCN1CCN(c2ccc3[nH]c(-c4ccc5[nH]c(-c6ccc(C(F)(F)F)cc6)nc5c4)nc3c2)CC1	SRB	10 µM, 48 h	–	growth percent	48%
CCOC(=O)CSc1nc(-c2ccc(Cl)cc2)c2c(NC(=O)c3ccccc3)nnc-2[nH]1	SRB	10 µM, NCI60 single-dose screen	baseline: untreated	cell growth	89.2%
O=C1NC(=NCc2cccs2)S/C1=C\c1ccc2ncccc2c1	MTS	NCI60 panel	–	IC50	6190 nM
Cc1cc(-c2ccccc2)n(-c2nc(-c3ccc(Cl)cc3)c3c(NC(=O)c4ccccc4)nnc-3[nH]2)n1	SRB	10 µM, NCI60 single-dose screen	baseline: untreated	cell growth	84.3%
CCC(=O)N1CCC(COCC(=O)N2CCN(c3nc(-c4cnc(N)nc4C(F)F)nc(N4CCOC[C@@H]4C)n3)CC2)CC1	Akt phosphorylation, inhibitor, in-cell western, measured: Akt pSer473	2 h	–	IC50	43.4 nM
O=C(Nc1nnc2n3c(Cc4ccccc4)n[nH]c3nc(-c3ccc(Cl)cc3)c1-2)c1ccccc1	SRB	10 µM, NCI60 single-dose screen	baseline: untreated	cell growth	100%
CCCCN1CCN(c2ccc3nc(-c4ccc5nc(-c6cc(OC)ccc6OC)[nH]c5c4)[nH]c3c2)CC1	SRB	10 µM, 48 h	–	growth percent	92.6%

A few entries again:
Structure (SMILES)	test	conditions	how to read	quantity	result
CCCN1CCN(c2ccc3nc(-c4ccc5nc(-c6cc(OC)ccc6OC)[nH]c5c4)[nH]c3c2)CC1	SRB	10 µM, 48 h	–	growth percent	98.8%
Cn1cncc1C1=CN(c2ncnc3[nH]cnc23)CCS1	–	–	–	GI50	10700 nM
